Measured values collected from several papers.
Compare with care: the assays were run in different laboratories.
Htr2c: 5-hydroxytryptamine receptor 2C (Htr2c, Mus musculus, UniProt P34968)
Chain of UniProt P34968 (whole entry, looked up): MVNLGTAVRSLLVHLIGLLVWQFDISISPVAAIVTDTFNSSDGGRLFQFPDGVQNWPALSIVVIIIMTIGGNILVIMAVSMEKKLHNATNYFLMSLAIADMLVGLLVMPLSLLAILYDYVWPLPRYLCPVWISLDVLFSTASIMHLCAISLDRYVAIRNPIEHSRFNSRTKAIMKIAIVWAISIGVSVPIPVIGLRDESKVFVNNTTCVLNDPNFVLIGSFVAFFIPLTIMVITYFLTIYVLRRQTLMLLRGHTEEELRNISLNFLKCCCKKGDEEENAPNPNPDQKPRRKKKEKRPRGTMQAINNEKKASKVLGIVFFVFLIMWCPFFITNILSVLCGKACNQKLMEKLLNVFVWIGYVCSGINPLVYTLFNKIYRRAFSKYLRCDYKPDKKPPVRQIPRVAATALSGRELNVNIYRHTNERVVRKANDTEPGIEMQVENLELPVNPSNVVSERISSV
PFF0160c: Dihydroorotate dehydrogenase (quinone), mitochondrial (PFF0160c, Plasmodium falciparum, UniProt Q08210)
CA2: Carbonic anhydrase 2 (CA2, Homo sapiens, UniProt P00918)
CA12: Carbonic anhydrase 12 (CA12, Homo sapiens, UniProt O43570)
Chain of UniProt O43570 (whole entry, looked up): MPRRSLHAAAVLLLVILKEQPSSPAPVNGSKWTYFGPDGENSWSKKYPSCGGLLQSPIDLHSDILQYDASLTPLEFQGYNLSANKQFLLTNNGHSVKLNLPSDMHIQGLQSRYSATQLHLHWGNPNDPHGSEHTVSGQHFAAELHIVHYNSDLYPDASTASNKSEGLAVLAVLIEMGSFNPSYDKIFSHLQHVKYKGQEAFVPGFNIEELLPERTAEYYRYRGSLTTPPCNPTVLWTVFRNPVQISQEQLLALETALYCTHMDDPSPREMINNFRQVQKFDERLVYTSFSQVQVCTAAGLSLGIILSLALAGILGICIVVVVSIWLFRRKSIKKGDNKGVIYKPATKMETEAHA
HTR2C: 5-hydroxytryptamine receptor 2C (HTR2C, Homo sapiens, UniProt P28335)
Chain of UniProt P28335 (whole entry, looked up): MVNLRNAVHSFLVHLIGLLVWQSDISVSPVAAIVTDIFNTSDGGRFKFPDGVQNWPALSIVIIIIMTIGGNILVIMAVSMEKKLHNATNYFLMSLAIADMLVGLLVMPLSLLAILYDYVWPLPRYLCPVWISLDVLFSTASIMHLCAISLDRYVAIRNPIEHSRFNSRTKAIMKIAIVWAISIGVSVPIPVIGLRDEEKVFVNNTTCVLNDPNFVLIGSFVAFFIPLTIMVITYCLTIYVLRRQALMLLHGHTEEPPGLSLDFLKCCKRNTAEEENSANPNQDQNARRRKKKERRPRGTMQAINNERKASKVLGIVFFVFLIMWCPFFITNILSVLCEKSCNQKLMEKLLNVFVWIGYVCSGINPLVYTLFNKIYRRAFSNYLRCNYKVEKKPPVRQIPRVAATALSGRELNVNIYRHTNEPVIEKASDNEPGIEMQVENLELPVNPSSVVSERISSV
PFF0160c E182D: Dihydroorotate dehydrogenase (quinone), mitochondrial (PFF0160c, Plasmodium falciparum, UniProt Q08210, E182D)
Chain of UniProt P55786 (whole entry, looked up): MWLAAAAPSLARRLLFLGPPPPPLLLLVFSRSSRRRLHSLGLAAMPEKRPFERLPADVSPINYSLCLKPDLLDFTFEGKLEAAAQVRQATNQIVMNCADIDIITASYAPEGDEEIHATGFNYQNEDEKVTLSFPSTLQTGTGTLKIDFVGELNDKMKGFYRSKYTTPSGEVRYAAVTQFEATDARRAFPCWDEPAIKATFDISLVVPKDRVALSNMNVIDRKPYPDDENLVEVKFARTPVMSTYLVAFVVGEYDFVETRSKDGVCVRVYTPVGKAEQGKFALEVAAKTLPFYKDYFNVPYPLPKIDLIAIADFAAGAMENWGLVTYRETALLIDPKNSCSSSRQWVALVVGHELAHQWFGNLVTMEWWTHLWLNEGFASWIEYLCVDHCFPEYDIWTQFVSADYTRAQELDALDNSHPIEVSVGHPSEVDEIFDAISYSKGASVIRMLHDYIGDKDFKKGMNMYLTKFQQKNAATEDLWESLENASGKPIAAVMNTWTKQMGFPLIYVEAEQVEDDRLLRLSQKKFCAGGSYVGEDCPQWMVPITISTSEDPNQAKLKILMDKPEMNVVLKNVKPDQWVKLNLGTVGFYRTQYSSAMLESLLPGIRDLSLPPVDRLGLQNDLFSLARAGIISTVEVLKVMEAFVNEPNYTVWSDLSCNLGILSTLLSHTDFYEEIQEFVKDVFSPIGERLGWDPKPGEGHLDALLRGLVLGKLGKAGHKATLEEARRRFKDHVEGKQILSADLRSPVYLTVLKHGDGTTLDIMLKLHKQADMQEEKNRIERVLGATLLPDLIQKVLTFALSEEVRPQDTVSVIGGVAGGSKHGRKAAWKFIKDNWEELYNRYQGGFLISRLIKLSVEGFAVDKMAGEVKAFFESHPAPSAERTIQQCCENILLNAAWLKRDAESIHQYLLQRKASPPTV
Chain of UniProt P00915 (whole entry, looked up): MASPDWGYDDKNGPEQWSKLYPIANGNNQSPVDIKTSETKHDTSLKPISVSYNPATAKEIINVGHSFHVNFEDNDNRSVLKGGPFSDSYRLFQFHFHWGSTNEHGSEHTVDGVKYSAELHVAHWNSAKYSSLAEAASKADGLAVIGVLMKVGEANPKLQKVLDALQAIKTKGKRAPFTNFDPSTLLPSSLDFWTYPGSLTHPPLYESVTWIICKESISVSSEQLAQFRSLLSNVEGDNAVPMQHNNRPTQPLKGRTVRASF
Chain of UniProt Q96FL8 (whole entry, looked up): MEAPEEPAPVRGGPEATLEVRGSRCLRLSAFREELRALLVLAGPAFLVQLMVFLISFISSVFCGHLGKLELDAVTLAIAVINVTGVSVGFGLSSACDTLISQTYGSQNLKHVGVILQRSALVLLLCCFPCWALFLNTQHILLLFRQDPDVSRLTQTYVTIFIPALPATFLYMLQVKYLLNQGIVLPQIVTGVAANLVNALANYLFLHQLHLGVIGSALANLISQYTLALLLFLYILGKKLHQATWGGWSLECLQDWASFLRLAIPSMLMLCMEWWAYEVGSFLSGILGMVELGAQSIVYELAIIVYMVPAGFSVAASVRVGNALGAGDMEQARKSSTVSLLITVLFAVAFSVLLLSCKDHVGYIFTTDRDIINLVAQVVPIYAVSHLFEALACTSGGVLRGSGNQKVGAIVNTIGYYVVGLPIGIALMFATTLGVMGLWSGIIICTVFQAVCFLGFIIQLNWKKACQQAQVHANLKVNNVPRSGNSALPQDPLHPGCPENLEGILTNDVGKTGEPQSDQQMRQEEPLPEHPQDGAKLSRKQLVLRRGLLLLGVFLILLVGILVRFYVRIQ
Chain of UniProt Q7KZI7 (whole entry, looked up): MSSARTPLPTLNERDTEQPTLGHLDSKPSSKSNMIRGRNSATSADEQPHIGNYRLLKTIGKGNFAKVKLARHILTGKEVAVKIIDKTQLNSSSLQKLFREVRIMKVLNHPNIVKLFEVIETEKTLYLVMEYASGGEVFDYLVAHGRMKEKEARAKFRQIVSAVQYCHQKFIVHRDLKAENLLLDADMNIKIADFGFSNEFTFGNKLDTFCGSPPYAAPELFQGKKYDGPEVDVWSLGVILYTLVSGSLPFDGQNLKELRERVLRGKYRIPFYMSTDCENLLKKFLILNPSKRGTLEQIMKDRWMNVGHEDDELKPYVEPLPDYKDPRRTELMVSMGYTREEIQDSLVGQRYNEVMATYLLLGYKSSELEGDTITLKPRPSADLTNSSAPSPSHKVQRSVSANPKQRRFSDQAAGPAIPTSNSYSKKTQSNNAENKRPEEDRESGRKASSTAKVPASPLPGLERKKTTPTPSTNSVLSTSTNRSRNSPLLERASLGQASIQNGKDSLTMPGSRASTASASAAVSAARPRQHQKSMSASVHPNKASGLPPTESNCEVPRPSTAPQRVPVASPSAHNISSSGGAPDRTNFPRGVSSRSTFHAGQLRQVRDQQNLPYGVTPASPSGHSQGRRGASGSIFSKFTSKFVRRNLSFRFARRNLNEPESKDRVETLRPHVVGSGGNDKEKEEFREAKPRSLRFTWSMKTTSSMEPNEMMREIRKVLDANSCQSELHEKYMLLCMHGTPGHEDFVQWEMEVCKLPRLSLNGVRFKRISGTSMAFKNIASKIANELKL
Chain of UniProt P23795 (whole entry, looked up): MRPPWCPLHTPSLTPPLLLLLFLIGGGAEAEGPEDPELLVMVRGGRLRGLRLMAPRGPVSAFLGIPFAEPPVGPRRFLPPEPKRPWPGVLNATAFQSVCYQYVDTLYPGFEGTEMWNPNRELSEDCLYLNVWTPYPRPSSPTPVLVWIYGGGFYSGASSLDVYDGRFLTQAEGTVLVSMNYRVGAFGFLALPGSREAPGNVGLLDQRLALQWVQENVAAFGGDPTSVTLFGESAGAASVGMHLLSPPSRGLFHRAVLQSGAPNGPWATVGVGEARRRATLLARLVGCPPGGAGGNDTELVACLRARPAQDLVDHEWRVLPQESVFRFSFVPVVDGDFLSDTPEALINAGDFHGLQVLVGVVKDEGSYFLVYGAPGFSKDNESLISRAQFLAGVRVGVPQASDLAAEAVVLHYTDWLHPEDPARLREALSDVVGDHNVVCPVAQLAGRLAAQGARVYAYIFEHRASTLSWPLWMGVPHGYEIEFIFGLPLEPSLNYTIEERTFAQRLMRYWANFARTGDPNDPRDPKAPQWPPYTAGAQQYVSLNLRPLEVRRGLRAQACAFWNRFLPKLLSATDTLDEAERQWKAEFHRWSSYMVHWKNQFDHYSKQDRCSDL
Chain of UniProt O14730 (whole entry, looked up): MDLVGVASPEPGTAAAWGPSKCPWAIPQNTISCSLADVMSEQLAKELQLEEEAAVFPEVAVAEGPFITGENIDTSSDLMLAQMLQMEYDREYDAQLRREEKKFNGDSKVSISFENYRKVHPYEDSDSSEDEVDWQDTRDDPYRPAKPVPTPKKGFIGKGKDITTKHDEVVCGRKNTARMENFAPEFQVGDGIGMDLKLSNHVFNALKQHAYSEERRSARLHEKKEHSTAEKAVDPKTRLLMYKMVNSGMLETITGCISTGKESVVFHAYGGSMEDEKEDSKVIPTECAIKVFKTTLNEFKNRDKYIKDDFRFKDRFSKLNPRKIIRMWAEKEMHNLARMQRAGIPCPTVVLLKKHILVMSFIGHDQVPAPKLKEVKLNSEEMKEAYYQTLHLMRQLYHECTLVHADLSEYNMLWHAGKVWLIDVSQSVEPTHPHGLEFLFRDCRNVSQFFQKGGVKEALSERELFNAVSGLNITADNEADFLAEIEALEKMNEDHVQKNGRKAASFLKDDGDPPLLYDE

With COc1cc(CCNCc2ccccc2OC)c(OC)cc1Br the EC50 was 0.182 nM (Htr2c; G protein activation, agonist, BRET).
CCc1nc2nc(C)cc(Nc3cc(C)cc(C)c3)n2n1 has an IC50 of 318 nM (PFF0160c; enzyme activity, inhibitor, absorbance).
For Nc1ncc(-c2nc(N3CCOCC3)nc(N3CCOCC3)n2)c(C(F)F)n1, the remaining binding was 0.75% (Phosphatidylinositol 4-phosphate 3-kinase C2 domain-containing subunit beta (PIK3C2B, Homo sapiens, UniProt O00750); binding, competition with immobilised ligand; 10 µM).
COc1cc(CCNCc2ccccc2O)c(OC)cc1C#N has an EC50 of 28.8 nM (Htr2c; G protein activation, agonist, BRET).
C=CC[N+](C)(C)c1ccc(CCC(=O)CCc2ccc([N+](C)(C)CC=C)cc2)cc1 gave an IC50 of 16 nM (Acetylcholinesterase (Bos taurus, UniProt P23795); enzyme activity, inhibitor, Ellman).
With O=C(Nc1cccc(C(F)(F)F)c1)Nc1ccc2c(c1)C=CCP(=O)(O)O2 the Ki was over 10000 nM (CA2; enzyme activity, inhibitor, stopped-flow).
CC(=O)Nc1sc(C)c(C)c1CN1CCc2ccccc2C1 gave an IC50 of 387 nM (PFF0160c; enzyme activity, inhibitor, absorbance).
Cc1ccc(C(=O)Nc2ccc3c(c2)C=CCP(=O)(O)O3)cc1 gave a Ki of over 10000 nM (CA2; enzyme activity, inhibitor, stopped-flow).
With CNC(C)Cc1ccc2c(c1)OCO2 (stereo not drawn) the IC50 was 6900 nM (Multidrug and toxin extrusion protein 1 (SLC47A1, Homo sapiens, UniProt Q96FL8); transporter uptake, inhibitor).
O=C(Nc1ccc2c(c1)C=CCP(=O)(O)O2)c1ccccc1 gave a Ki of 7.3 nM (CA12; enzyme activity, inhibitor, stopped-flow).
COc1cc(CCNC(C)c2ccccc2O)c(OC)cc1Br (stereo not drawn) gave an EC50 of 5.7 nM (HTR2C; calcium signal, agonist).
CN(C)c1ncnc2c1ncn2[C@@H]1O[C@H](CCl)[C@@H](NC(=O)[C@@H](CSC(c2ccccc2)c2ccccc2)NC(=O)OC(C)(C)C)[C@H]1O gave an IC50 of 6700 nM (Puromycin-sensitive aminopeptidase (Homo sapiens, UniProt P55786); enzyme activity, inhibitor, fluorescence).
The remaining binding of Cc1nn(C)cc1-c1nc2c(N3CCN(Cc4ccc(Cl)cc4)CC3)c(Cl)cnc2[nH]1 is reported as 2.8% (Serine/threonine-protein kinase RIO3 (RIOK3, Homo sapiens, UniProt O14730); binding, competition with immobilised ligand; 1 µM).
Cc1[nH]c2ccc(-c3ccccc3)cc2c(=O)c1Br gave an IC50 of over 10000 nM (PFF0160c E182D; enzyme activity, inhibitor, absorbance).
With O=C(Nc1ccc2c(c1)C=CCP(=O)(O)O2)Nc1ccccc1Br the Ki was over 10000 nM (CA12; enzyme activity, inhibitor, stopped-flow).
O=C(Nc1cccc(CN2CCN(C(=O)c3ccccc3)CC2)c1)c1cccs1 gave an IC50 of 1430 nM (PFF0160c; enzyme activity, inhibitor, absorbance).
COC(=O)c1cc(-c2cccc(NC(=O)Nc3ccc(F)cc3F)c2)on1 has an MIC of over 64 µg/mL (Klebsiella pneumoniae; microbial growth, broth dilution; BAA1705).
For COc1cc(CCNC(C)c2ccccc2O)c(OC)cc1C#N (single isomer, unassigned; (+)), the EC50 was 3300 nM (HTR2C; calcium signal, agonist).
CCOc1cccc(=O)c2c(C)n(Cc3ccc(Cl)cc3)c(C)c12 has an IC50 of 1560 nM (PFF0160c E182D; enzyme activity, inhibitor, absorbance).
With COc1cccc(NC(=O)Nc2ccc3c(c2)C=CCP(=O)(O)O3)c1 the Ki was over 10000 nM (Carbonic anhydrase 1 (CA1, Homo sapiens, UniProt P00915); enzyme activity, inhibitor, stopped-flow).
With COc1cc(CCNC(C)c2ccccc2)c(OC)cc1C#N (stereo not drawn) the EC50 was 1600 nM (HTR2C; G protein activation, agonist, BRET).
COC(=O)c1cc(-c2cccc(NC(=O)Nc3ccc(OC)cc3)c2)on1 has an MIC of over 64 µg/mL (Mycobacteroides chelonae; microbial growth, broth dilution; ATCC35752; 48 h).
COc1ccccc1N1CCN(c2cccc(F)c2C#N)CC1 gave an IC50 of 1120 nM (PFF0160c; enzyme activity, inhibitor, absorbance).
[2H]c1c([2H])c([C@]2([2H])CCCN2C(=O)C(C)(C)Oc2ccc3cn[nH]c3c2)c([2H])c([2H])c1C([2H])([2H])[2H] has a remaining binding of 83% (Serine/threonine-protein kinase MARK2 (MARK2, Homo sapiens, UniProt Q7KZI7); binding, competition with immobilised ligand; 1 µM).

Excerpt of the above:
The remaining binding of Cc1nn(C)cc1-c1nc2c(N3CCN(Cc4ccc(Cl)cc4)CC3)c(Cl)cnc2[nH]1 is reported as 2.8% (Serine/threonine-protein kinase RIO3 (RIOK3, Homo sapiens, UniProt O14730); binding, competition with immobilised ligand; 1 µM).
With COc1cccc(NC(=O)Nc2ccc3c(c2)C=CCP(=O)(O)O3)c1 the Ki was over 10000 nM (Carbonic anhydrase 1 (CA1, Homo sapiens, UniProt P00915); enzyme activity, inhibitor, stopped-flow).
O=C(Nc1cccc(CN2CCN(C(=O)c3ccccc3)CC2)c1)c1cccs1 gave an IC50 of 1430 nM (PFF0160c; enzyme activity, inhibitor, absorbance).
